Measurements collected from several papers.
Compare with care: the assays were run in different laboratories. Values joined by “and” are separate records of one study, mostly repeats; a detail may differ. Numbers after ± are the reported error.
INSR: Insulin receptor (INSR, Homo sapiens, UniProt P06213)
Chain of UniProt P06213 (whole entry, looked up): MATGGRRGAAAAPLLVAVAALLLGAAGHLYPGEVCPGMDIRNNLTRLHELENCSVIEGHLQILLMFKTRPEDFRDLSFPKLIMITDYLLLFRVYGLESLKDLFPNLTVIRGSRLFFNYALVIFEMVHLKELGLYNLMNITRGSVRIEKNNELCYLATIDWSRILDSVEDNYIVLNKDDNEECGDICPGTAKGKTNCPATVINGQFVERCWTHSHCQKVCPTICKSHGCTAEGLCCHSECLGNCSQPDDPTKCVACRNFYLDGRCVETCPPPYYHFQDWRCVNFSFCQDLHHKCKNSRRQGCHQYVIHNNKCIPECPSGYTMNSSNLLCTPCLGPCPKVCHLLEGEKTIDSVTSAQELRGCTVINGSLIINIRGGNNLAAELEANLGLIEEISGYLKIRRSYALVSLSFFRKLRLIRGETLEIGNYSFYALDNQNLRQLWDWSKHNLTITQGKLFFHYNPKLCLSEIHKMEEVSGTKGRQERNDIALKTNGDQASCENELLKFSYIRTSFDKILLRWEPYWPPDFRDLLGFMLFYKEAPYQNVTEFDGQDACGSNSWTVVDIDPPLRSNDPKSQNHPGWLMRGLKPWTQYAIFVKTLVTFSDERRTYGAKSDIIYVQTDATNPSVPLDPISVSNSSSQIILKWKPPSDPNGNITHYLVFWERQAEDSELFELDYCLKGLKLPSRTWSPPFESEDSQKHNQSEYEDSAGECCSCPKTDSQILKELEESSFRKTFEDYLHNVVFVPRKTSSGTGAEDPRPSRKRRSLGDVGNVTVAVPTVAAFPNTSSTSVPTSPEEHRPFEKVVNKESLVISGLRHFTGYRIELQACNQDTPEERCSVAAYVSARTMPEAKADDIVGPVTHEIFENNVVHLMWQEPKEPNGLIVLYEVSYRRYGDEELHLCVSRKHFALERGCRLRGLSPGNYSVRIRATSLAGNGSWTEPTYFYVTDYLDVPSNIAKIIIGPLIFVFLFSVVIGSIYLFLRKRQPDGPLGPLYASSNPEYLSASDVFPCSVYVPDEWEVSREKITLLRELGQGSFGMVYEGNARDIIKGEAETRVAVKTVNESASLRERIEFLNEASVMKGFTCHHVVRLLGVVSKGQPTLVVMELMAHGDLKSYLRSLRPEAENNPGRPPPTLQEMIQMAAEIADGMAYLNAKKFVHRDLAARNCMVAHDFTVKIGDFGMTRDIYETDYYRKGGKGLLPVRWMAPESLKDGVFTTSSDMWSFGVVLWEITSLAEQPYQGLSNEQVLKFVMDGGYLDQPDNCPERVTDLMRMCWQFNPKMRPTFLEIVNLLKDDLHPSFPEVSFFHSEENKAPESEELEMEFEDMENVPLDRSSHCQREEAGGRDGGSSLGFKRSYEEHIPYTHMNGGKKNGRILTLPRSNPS
TAOK1: Serine/threonine-protein kinase TAO1 (TAOK1, Homo sapiens, UniProt Q7L7X3)
Chain of UniProt Q7L7X3 (whole entry, looked up): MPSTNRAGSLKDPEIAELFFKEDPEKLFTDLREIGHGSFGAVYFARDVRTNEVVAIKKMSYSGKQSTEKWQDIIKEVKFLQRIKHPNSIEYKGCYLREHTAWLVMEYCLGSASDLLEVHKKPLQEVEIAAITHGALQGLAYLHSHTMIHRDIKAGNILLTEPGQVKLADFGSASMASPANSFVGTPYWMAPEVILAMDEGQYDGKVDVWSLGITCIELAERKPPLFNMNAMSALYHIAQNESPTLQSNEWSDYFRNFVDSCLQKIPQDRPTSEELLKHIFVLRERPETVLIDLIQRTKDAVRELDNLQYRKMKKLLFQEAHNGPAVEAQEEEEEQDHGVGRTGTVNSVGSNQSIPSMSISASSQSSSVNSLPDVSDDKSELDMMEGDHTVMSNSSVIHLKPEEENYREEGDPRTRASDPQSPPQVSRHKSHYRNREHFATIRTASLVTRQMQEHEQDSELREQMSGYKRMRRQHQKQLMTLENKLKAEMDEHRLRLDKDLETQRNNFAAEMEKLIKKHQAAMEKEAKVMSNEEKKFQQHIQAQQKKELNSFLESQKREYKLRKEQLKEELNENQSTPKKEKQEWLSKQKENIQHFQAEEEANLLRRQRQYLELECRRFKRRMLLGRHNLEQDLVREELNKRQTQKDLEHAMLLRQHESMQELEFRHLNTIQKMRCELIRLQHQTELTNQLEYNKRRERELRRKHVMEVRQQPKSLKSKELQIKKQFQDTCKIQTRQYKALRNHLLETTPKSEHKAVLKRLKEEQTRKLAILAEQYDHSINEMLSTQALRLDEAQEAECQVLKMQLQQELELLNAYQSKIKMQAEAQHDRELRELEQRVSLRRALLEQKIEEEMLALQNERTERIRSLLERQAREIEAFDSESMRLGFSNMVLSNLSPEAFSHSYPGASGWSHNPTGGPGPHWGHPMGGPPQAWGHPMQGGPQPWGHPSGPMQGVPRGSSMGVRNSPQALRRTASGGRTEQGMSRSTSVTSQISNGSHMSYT
MARK3: MAP/microtubule affinity-regulating kinase 3 (MARK3, Homo sapiens, UniProt P27448)
Chain of UniProt Q92626 (whole entry, looked up): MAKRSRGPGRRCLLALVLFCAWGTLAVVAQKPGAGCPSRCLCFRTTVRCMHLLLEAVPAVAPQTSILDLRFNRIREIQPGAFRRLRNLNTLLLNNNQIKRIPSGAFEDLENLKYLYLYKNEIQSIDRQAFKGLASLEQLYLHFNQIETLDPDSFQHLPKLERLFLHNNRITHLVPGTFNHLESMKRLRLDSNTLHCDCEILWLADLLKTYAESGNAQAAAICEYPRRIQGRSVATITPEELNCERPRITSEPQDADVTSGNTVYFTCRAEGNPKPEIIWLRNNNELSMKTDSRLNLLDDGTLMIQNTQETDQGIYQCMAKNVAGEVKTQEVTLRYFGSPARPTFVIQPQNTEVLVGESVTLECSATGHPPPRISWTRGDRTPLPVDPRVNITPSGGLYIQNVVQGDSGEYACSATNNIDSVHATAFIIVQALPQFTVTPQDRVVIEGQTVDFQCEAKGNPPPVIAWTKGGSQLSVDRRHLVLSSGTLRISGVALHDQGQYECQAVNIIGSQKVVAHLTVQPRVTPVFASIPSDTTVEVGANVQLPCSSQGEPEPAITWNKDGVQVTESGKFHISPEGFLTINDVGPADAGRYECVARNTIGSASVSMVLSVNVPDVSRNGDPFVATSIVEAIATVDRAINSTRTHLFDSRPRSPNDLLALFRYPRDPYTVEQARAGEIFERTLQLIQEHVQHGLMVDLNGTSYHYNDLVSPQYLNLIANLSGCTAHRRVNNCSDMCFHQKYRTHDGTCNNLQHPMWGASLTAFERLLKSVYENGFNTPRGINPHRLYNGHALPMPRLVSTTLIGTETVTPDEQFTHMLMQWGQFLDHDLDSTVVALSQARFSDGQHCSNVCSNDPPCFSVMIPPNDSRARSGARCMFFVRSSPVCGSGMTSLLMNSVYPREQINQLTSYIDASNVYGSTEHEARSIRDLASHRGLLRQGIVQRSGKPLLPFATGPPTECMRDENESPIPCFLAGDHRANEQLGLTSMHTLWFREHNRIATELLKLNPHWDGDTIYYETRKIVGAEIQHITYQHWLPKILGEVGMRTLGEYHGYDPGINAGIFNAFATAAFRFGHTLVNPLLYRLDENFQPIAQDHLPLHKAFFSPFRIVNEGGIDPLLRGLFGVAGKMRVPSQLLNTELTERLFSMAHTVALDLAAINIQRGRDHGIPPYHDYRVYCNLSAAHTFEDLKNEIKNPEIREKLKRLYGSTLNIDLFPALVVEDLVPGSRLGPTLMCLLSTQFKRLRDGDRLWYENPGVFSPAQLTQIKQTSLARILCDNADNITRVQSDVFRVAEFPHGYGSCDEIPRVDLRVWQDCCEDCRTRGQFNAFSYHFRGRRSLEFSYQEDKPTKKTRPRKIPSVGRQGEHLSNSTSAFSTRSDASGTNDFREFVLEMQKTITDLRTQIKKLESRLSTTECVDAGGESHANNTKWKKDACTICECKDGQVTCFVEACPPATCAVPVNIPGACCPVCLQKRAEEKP
Chain of UniProt P27448 (whole entry, looked up): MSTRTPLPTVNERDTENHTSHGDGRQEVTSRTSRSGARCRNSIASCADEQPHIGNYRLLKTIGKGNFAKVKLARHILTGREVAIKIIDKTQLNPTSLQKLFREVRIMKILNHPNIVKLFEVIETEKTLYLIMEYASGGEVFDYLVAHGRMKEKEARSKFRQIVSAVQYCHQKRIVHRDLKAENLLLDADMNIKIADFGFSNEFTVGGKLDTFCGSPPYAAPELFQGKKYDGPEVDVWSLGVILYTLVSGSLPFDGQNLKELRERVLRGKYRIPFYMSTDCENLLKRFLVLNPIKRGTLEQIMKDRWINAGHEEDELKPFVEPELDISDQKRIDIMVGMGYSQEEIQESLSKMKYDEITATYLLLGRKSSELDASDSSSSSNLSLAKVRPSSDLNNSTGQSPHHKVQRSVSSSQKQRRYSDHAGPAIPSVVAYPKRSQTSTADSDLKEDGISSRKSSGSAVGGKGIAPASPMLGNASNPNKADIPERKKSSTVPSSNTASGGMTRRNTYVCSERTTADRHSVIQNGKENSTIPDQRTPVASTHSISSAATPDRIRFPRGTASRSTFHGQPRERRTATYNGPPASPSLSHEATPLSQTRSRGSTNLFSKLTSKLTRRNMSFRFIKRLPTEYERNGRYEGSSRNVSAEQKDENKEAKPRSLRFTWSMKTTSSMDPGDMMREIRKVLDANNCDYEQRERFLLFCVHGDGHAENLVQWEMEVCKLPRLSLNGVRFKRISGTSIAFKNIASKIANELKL
Chain of UniProt P48729 (whole entry, looked up): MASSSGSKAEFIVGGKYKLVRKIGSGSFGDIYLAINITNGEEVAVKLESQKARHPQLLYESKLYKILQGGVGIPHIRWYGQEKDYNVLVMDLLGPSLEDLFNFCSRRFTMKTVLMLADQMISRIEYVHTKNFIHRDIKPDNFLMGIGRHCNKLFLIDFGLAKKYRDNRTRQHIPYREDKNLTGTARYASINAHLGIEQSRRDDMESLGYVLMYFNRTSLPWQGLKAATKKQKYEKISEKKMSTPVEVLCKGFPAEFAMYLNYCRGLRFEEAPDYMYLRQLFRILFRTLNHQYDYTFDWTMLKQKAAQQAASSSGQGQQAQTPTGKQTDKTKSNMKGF

With CCOc1cc(N2CCN(C)CC2)ccc1Nc1nc(N)n(C(=O)NCc2ccccc2S(=O)(=O)C(C)C)n1 the remaining activity was 0.05% (INSR; enzyme activity; 10 µM; reference: control).
For Cc1cc(Nc2cc(N3CCN(C)CC3)nc(Sc3ccc(NC(=O)C4CC4)cc3)n2)[nH]n1, the remaining activity was 107% (TAOK1; kinase activity, KinaseProfiler; 0.03 µM, species human; reference: control).
O=C1NC(=O)/C(=C/c2ccc(-c3ccc(F)cc3O)o2)S1 has a remaining activity of 18% (TAOK1; enzyme activity; 10 µM).
With COc1cc(N2CCN(C)CC2)ccc1Nc1nc(N)n(C(=S)NCc2c(Cl)cccc2Cl)n1 the remaining activity was 0.45% (STK17B (Homo sapiens, UniProt O94768); enzyme activity; 10 µM; reference: control).
COc1cc(-c2cncc3c2CN(C)Cc2cc(N4CCNCC4)ccc2-3)cc(OC)c1OC has a remaining activity of 111% (MARK3; kinase activity; 1 µM, human enzyme, added: ATP 10 µM; reference: DMSO control).
CCCCCC/C(C)=N/Nc1ccc([N+](=O)[O-])cc1[N+](=O)[O-] has a remaining activity of 62% (KDM4B (Homo sapiens, UniProt O94953); concentration not given).
OCCS gave a remaining activity of 97.3 ± 0.5% (Alpha-L-fucosidase AlfC (Lacticaseibacillus rhamnosus, UniProt A0A809N2S1); inhibitor; 1000 µM, 5 min; reference: untreated).
O=C(NC1CCC1)c1ccc2nc(-c3cccc(NS(=O)(=O)NCCN4CCCCC4)c3)cn2c1 gave a remaining activity of 97% (TNNI3K (Homo sapiens, UniProt Q59H18); enzyme activity; 10 µM).
With C=CC(=O)N1CCC[C@@H](n2nc(-c3ccc(Oc4ccccc4)cc3)c3c(N)ncnc32)C1 the remaining activity was 6.7 ± 0.1% (FGR (Homo sapiens, UniProt P09769); kinase activity, inhibitor, HotSpot radiometric; 100 nM, added: ATP 10 µM).
The remaining activity of CNc1ncc2c(/C=C/C(=O)N3CCC(OC)CC3)nn(Cc3cccc(C(F)(F)F)c3)c2n1 is reported as 92% (ACVRL1 (Homo sapiens, UniProt P37023); kinase activity, inhibitor; 1 µM; reference: untreated control).
The remaining activity of NC/C(=C\F)COc1cccc(Cn2c(=S)[nH]c(=O)c3[nH]cnc32)c1 is reported as 98.1% and 98.4% (Peroxidasin homolog (PXDN, Homo sapiens, UniProt Q92626); enzyme activity, inhibitor, Amplex UltraRed; 0.625 µM; reference: control).
C[C@@H](Oc1ccc(S(C)(=O)=O)cc1C(=O)N1C[C@@H]2C[C@]2(c2cc(C(F)(F)F)on2)C1)C(F)(F)F gave a remaining activity of 38% (SLC6A9 (Homo sapiens, UniProt P48067, L476T); glycine uptake, inhibitor, [3H]glycine uptake; 0.004 µM, L422T mutant, log concentration 4, added: [3H]glycine; reference: no inhibitor).
COc1cc(F)ccc1-c1ncnc(Nc2cccc(C[S@](C)(=N)=O)c2)n1 has a remaining activity of 90% (EPHA8 (Homo sapiens, UniProt P29322); kinase activity; 10 µM, added: 10 µM ATP).
With C=CC(=O)N1CCC[C@@H](n2nc(-c3ccc(Oc4ccccc4)cc3)c3c(N)ncnc32)C1 the remaining activity was 72.7% (TNK1 (Homo sapiens, UniProt Q13470); 10 µM).
The remaining activity of COc1cc(Nc2ncc3c(n2)-c2ccc(Cl)cc2C(c2c(F)cccc2OC)=NC3)ccc1C(=O)O is reported as 22% (NTRK2; kinase activity; 1 µM).
The remaining activity of N[C@@H]1CC[C@@H](c2ccc(Cl)c(Cl)c2)c2ccccc21 is reported as 112% (SLC6A3 (Homo sapiens, UniProt Q01959, S422A); dopamine uptake; 0.0001 µM, 0.03333 h, S422A mutant, added: [3H]dopamine; reference: no inhibitor).
With O=C(O)c1ccc(Nc2ncc3c(n2)-c2ccc(Cl)cc2C(c2c(F)cccc2F)=NC3)cc1 the remaining activity was 105% (Plk3(h); kinase activity; 1 µM).
For COc1cc(N2CCN(C)CC2)ccc1Nc1nc(N)n(C(=O)NCc2ccccc2S(=O)(=O)C(C)C)n1, the remaining activity was 0.4% (INSR; enzyme activity; 10 µM; reference: control).
C[C@H]1[C@H](OC(=O)CCC(=O)O)O[C@@H]2O[C@@]3(C)CC[C@H]4[C@H](C)CC[C@@H]1[C@@]24OO3 has a remaining activity of 84.4% (Non-structural polyprotein pORF1, helicase domain (Hepatitis E virus genotype 1, UniProt P33424); ATPase activity, inhibitor, colorimetric; 19.5 µM, preincubation 30 min, added: ATP 400 µM; reference: untreated).
With COc1cc(N2CCN(C)CC2)ccc1Nc1nc(N)n(C(=O)NCc2c(Cl)cccc2Cl)n1 the remaining activity was 6.7% (GRK4 (Homo sapiens, UniProt P32298); enzyme activity; 10 µM; reference: control).
Nc1ncc2c(n1)-c1c([nH]c3ccc(-c4ccc(F)cc4)cc13)CCC2 gave a remaining activity of 90% (MARK3; kinase activity, inhibitor, radiometric; 1 µM, added: ATP at Km).
With Fc1ccc(-c2nc3cc(F)ccn3c2-c2ccncc2)cc1 the remaining activity was 29.5% and 15.4% (CSNK1A1 (Homo sapiens, UniProt P48729); kinase activity, inhibitor, ADP-Glo; 0.8751 µM, 0.5 h).
